Published values pooled from the literature.
Values joined by “and” are separate records of one study, mostly repeats; a detail may differ.

Structure (SMILES)	assay	system	setting	scale	endpoint	value
C=CCN1CCC23c4c5ccc(OC(=O)c6ccc(NC(=O)OC(C)(C)C)cc6)c4OC2C(=O)CCC3(O)C1C5 (stereo not shown)	–	rat plasma	1 h, no inhibitor	–	remaining compound	0%
C#Cc1c(F)ccc2cc(O)cc(-c3ncc4c(N5CC6CCC(C5)N6C(=O)OC(C)OC(=O)C5CCOCC5)nc(OC[C@@]56CCCN5C[C@H](F)C6)nc4c3F)c12 (stereo partly shown)	–	simulated gastric fluid	1 µM, 30 min, 37 °C	–	remaining prodrug	109%
CSCC[C@@H]1NC(=O)[C@H](C(C)C)NC(=O)[C@H](CCCNC(=N)N)NC(=O)CNC(=O)[C@@H]2CCCN2C(=O)[C@@H](NC(=O)CNC(=O)[C@H](CO)NC(=O)CNC(=O)[C@H](CO)NC(=S)Nc2ccc(C[C@H]3CN(CC(=O)O)CCN(CC(=O)O)CCN3CC(=O)O)cc2)CSSC[C@@H](C(N)=O)NC(=O)[C@@H]2CCCN2C(=O)CNC(=O)[C@H](CCC(=O)O)NC(=O)[C@H](CC(=O)O)NC(=O)[C@H](CC(=O)O)NC(=O)CNC(=O)[C@H](CC(C)C)NC(=O)[C@H](Cc2c[nH]cn2)NC(=O)[C@H](CC(C)C)NC(=O)CNC(=O)[C@H](Cc2c[nH]cn2)NC1=O [copper-64 labelled]	SE-HPLC	rat serum	1.2 µM, 1 h, 37 °C	–	remaining intact	> 90%
Cc1nnc(-c2ccc(CC(=O)NCCCC[C@H](NC(=O)c3ccc(OCc4ccc(B(O)O)cc4)c(-c4nc5ccccc5c(=O)[nH]4)c3)C(=O)NCC(=O)NCC(=O)NCC(=O)N[C@@H](Cc3ccccc3)C(=O)N[C@@H](Cc3ccccc3)C(=O)O)cc2)nn1	UPLC-MS/MS	human serum	100 µM, 1 h, 37 °C	–	remaining compound	86.7%
CC[C@H](C)[C@H](NC(=O)[C@@H](NC(=O)[C@H](CCCCN)NC(=O)[C@@H](N)[C@@H](C)O)C(C)C)C(=O)N[C@@H](CC(C)C)C(=O)N[C@@H](Cc1c[nH]cn1)C(N)=O	LC-MS	pronase digest	200 µM, 10 min, pH 7.5, 37 °C, added: pronase 2.5 µg/mL	–	remaining intact peptide	83%
C=CCN1CCC23c4c5ccc(OC(=O)c6ccccc6)c4OC2C(=O)CCC3(O)C1C5 (stereo not shown)	–	rat plasma	0 h, no inhibitor	–	remaining compound	95.4% and 95.8% and 109%
C[C@H](NC(=O)CNC(=O)[C@@H]1CCCN1C(=O)[C@H](CO)NC(=O)CNC(=O)[C@H](CO)NC(=O)[C@H](C)NC(=O)[C@H](CC(N)=O)NC(=O)[C@H](C)NC(=O)[C@H](CO)NC(=O)[C@H](C)NC(=O)[C@H](CO)NC(=O)[C@@H]1CCCN1C(=O)[C@H](Cc1ccccc1)NC(=O)[C@H](C)NC(=O)[C@H](CO)NC(=O)[C@@H]1CCCN1C(=O)[C@H](Cc1ccccc1)NC(=O)[C@@H](NC(=O)[C@H](CC(=O)O)NC(=O)[C@@H](N)CO)[C@@H](C)O)C(=O)N[C@@H](CCCNC(=N)N)C(=O)N[C@@H](CO)C(=O)O	–	CHO-K1 culture medium	20 min	–	remaining peptide	1.03%
CCN(CC)CCOc1ccc(-c2nnn(Cc3ccc(OC)cc3)c2N)cc1	–	mouse liver microsomes	concentration not given, time not given	–	remaining compound	57.2%
C#Cc1c(F)ccc2cc(O)cc(-c3ncc4c(N5CC6CCC(C5)N6C(=O)OC(C)OC(=O)CC(C)(C)C)nc(OC[C@@]56CCCN5C[C@H](F)C6)nc4c3F)c12 (stereo partly shown)	–	simulated gastric fluid	1 µM, 30 min, 37 °C	–	remaining prodrug	77.9%
CCCCCCCCCCCC(=O)C(C)C(=O)N1CCC[C@H]1C(=O)NC(C)(C)C(=O)NC(C)(C)C(=O)NC(C)(C)C(=O)N[C@](C)(CC)C(=O)NCCC(=O)N[C@@H](C)C(=O)N[C@](C)(CC)C(=O)N[C@@H](C)C(=O)N[C@@H](CC(C)C)C(=O)N[C@](C)(CC)C(=O)NCCC(=O)N[C@@H](C)C(=O)N[C@](C)(CC)C(=O)NCCC(=O)N[C@@H](C)C(=O)NC(C)(C)C(=O)NC(C)(C)C(=O)NC(C)(C)C(=O)N[C@@H](C)C(=O)N[C@@H](CC(=O)O)C(=O)O (stereo partly shown)	LC-MS	50% pooled human serum	40 µM, 720 min, pH 7.5, 37 °C	relative to: 0 h	remaining intact peptide	28.2% and 28.5% and 25.2%

For quick reference, copied from above:
Structure (SMILES)	assay	system	setting	scale	endpoint	value
CCCCCCCCCCCC(=O)C(C)C(=O)N1CCC[C@H]1C(=O)NC(C)(C)C(=O)NC(C)(C)C(=O)NC(C)(C)C(=O)N[C@](C)(CC)C(=O)NCCC(=O)N[C@@H](C)C(=O)N[C@](C)(CC)C(=O)N[C@@H](C)C(=O)N[C@@H](CC(C)C)C(=O)N[C@](C)(CC)C(=O)NCCC(=O)N[C@@H](C)C(=O)N[C@](C)(CC)C(=O)NCCC(=O)N[C@@H](C)C(=O)NC(C)(C)C(=O)NC(C)(C)C(=O)NC(C)(C)C(=O)N[C@@H](C)C(=O)N[C@@H](CC(=O)O)C(=O)O (stereo partly shown)	LC-MS	50% pooled human serum	40 µM, 720 min, pH 7.5, 37 °C	relative to: 0 h	remaining intact peptide	28.2% and 28.5% and 25.2%
